Experimental data pooled from the literature.
Lines come from different studies, so protocols differ. ± gives the spread as reported.

CC(C)C[C@@H](NC(=O)[C@@H](CCCNC(=N)N)NC(=O)[C@@H](Cc1c[nH]cn1)NC(=O)[C@@H](Cc1c[nH]c2ccccc12)NC(=O)[C@@H](Cc1c[nH]cn1)NC(=O)[C@@H](Cc1ccccc1)NC(=O)[C@H](NC(=O)[C@@H](Cc1ccc(O)cc1)NC(=O)CNC(=O)CNC(=O)CCOCCOCCOCCNC(=O)CN1CCN(CC(=O)O)CCN(CC(=O)O)CC1)[C@H](C)O)C(=O)N[C@H](CC(N)=O)C(=O)N1CCC[C@@H]1C(=O)O [gallium-68 labelled]  tissue uptake (gamma counting; C57BL/6 mice, male, blood; intravenous, 1.85 MBq, 60 min): 0.9 ± 0.22 %ID/g
CCCC[C@H]1C(=O)N(C)[C@@H](CCCC)C(=O)N[C@@H](CCCNC(=O)CN2CCN(CC(=O)O)CCN(CC(=O)O)CCN(CC(=O)O)CC2)C(=O)N[C@H](C(=O)NCC(N)=O)CSCC(=O)N[C@@H](Cc2ccc(O)cc2)C(=O)N(C)[C@@H](C)C(=O)N[C@@H](CC(N)=O)C(=O)N2CCC[C@H]2C(=O)N[C@@H](Cc2c[nH]cn2)C(=O)N[C@@H](CC(C)C)C(=O)N(C)CC(=O)N[C@@H](Cc2c[nH]c3ccccc23)C(=O)N[C@@H](CO)C(=O)N[C@@H](Cc2c[nH]c3ccccc23)C(=O)N1C [gallium-68 labelled]  tissue uptake (NOD/SCID mice with CHO-hPD-L1 xenograft, skin; 60 min post injection): 9.62 ± 2.41 %ID/g
CC[C@H](C)[C@H](NC(=O)[C@@H](Cc1c[nH]c2ccccc12)NC(=O)[C@@H]1CCCN1C(=O)[C@H](CCCCN)NC(=O)[C@H](CCCCN)NC(=O)CCNC(=O)CCNC(=O)CN1CCN(CC(=O)O)CCN(CC(=O)O)CCN(CC(=O)O)CC1)C(=O)N[C@@H](C[Si](C)(C)C)C(=O)O [gallium-68 labelled]  tissue uptake (ex vivo biodistribution; nude mice, HT-29 xenograft, blood; 90 min, with: levocabastine 0.5 µmol): 0.2 ± 0.07 %ID/g
CC[C@H](C)[C@H](NC(=O)[C@H](CCCNC(=N)N)NC(=O)[C@H](CCCCN)NC(=O)[C@H](Cc1ccc(O)cc1)NC(=O)[C@H](CC(=O)O)NC(=O)[C@H](C)NC(=O)CNC(=O)CCOCCOCCOCCNC(=O)CN1CCN(CC(=O)O)CCN(CC(=O)O)CCN(CC(=O)O)CC1)C(=O)N[C@H](C(=O)N[C@@H](CC(C)C)C(=O)N[C@@H](CCCCN)C(=O)N[C@H](C(=O)N[C@@H](CC(N)=O)C(N)=O)C(C)C)[C@@H](C)O [copper-64 labelled]  tissue uptake (ex vivo gamma counting; C57BL/6J male mice, B16-F10 tumour, lung; intravenous, 1.85 MBq, 100 min): 1.64 ± 0.637 %ID/g
C[C@H](O)[C@@H](NC(=O)[C@H]1CCCN1C(=O)[C@@H](CCCCN)NC(=O)[C@@H](CO)NC(=O)[C@@H](Cc1ccc(O)cc1)NC(=O)[C@@H](CC(N)=O)NC(=O)CCOCCOCCOCCNC(=O)CN1CCN(CC(=O)O)CCN(CC(=O)O)CCN(CC(=O)O)CC1)C(=O)N[C@H](CC(=O)O)C(=O)N[C@H](CCCNC(=N)N)C(=O)N[C@H](CCC(N)=O)C(=O)N[C@H](Cc1ccc(O)cc1)C(=O)N[C@H](Cc1c[nH]cn1)C(=O)N[C@H](Cc1ccccc1)C(N)=O [gallium-68 labelled]  tissue uptake (BALB/c nude mice U-87 MG tumour, heart; intravenous, 1.85 MBq, 0.08333 h, radiolabelled): 1.19 ± 0.39 %ID/g
CC[C@H](C)[C@H](NC(=O)[C@H](CCCCN)NC(=O)CNC(=O)[C@H](CC(C)C)NC(=O)[C@H](Cc1ccccc1)NC(=O)[C@H](CCCCN)NC(=O)[C@H](CO)NC(=O)[C@H](Cc1ccccc1)NC(=O)[C@H](Cc1c[nH]c2ccccc12)NC(=O)[C@H](CCC(N)=O)NC(=O)[C@@H](NC(=O)[C@H](Cc1ccccc1)NC(=O)CCCCCNC(=O)CN1CCN(CC(=O)O)CCN(CC(=O)O)CCN(CC(=O)O)CC1)C(C)C)C(=O)N[C@@H](CCC(=O)O)C(=O)N1CCC[C@H]1C(=O)N[C@@H](CC(=O)O)C(=O)N[C@H](C(=O)N[C@@H](CO)C(=O)N[C@@H](CCC(N)=O)C(=O)N[C@H](C(=O)N[C@@H](CCC(N)=O)C(=O)N[C@@H](CC(=O)O)C(=O)N1CCC[C@H]1C(=O)N[C@@H](CC(N)=O)C(=O)N[C@@H](CC(=O)O)C(=O)N[C@@H](CCC(N)=O)C(=O)N[C@@H](Cc1ccc(O)cc1)C(=O)N[C@@H](CCC(=O)O)C(=O)N1CCC[C@H]1C(=O)N[C@@H](Cc1ccccc1)C(=O)O)C(C)C)C(C)C [copper-64 labelled]  tissue uptake (GZMB-/- mice, CT26 tumour-bearing, liver; 2 h, vehicle-treated): 8.12 ± 1.2 %ID/g
CC[C@H](C)[C@H](NC(=O)[C@H](CCCNC(=N)N)NC(=O)[C@H](CCCCN)NC(=O)[C@H](Cc1ccc(O)cc1)NC(=O)[C@H](CC(=O)O)NC(=O)[C@H](C)NC(=O)CNC(=O)CCOCCOCCOCCNC(=O)CN1CCN(CC(=O)O)CCN(CC(=O)O)CCN(CC(=O)O)CC1)C(=O)N[C@H](C(=O)N[C@H](C(=O)N[C@@H](CCCCN)C(=O)N[C@H](C(=O)N[C@@H](CC(N)=O)C(N)=O)C(C)C)C(C)C)[C@@H](C)O [copper-64 labelled]  tissue uptake (ex vivo gamma counting; C57BL/6J male mice, B16-F10 tumour, spleen; intravenous, 1.85 MBq, 40 min): 0.68 ± 0.129 %ID/g
CSCC[C@H](NC(=O)CNC(=O)[C@H](CCCCN)NC(=O)[C@H](CC(C)C)NC(=O)[C@@H]1CCCN1C(=O)[C@H](CO)NC(=O)[C@H](Cc1c[nH]cn1)NC(=O)[C@H](Cc1c[nH]c2ccccc12)NC(=O)[C@H](CCCNC(=N)N)NC(=O)[C@H](CC(C)C)NC(=O)[C@H](CCCNC(=N)N)NC(=O)[C@H](Cc1c[nH]c2ccccc12)NC(=O)[C@H](CS)NC(=O)CCCCCNC(=O)CN1CCN(CC(=O)O)CCN(CC(=O)O)CCN(CC(=O)O)CC1)C(=O)O [copper-64 labelled]  tissue uptake (ex vivo biodistribution; male C57BL/6J mice, bone; intravenous, 1.85 MBq, 0.5 h, B16-F10 tumour-bearing): 2.06 %ID/g

For quick reference, copied from above:
CC[C@H](C)[C@H](NC(=O)[C@H](CCCCN)NC(=O)CNC(=O)[C@H](CC(C)C)NC(=O)[C@H](Cc1ccccc1)NC(=O)[C@H](CCCCN)NC(=O)[C@H](CO)NC(=O)[C@H](Cc1ccccc1)NC(=O)[C@H](Cc1c[nH]c2ccccc12)NC(=O)[C@H](CCC(N)=O)NC(=O)[C@@H](NC(=O)[C@H](Cc1ccccc1)NC(=O)CCCCCNC(=O)CN1CCN(CC(=O)O)CCN(CC(=O)O)CCN(CC(=O)O)CC1)C(C)C)C(=O)N[C@@H](CCC(=O)O)C(=O)N1CCC[C@H]1C(=O)N[C@@H](CC(=O)O)C(=O)N[C@H](C(=O)N[C@@H](CO)C(=O)N[C@@H](CCC(N)=O)C(=O)N[C@H](C(=O)N[C@@H](CCC(N)=O)C(=O)N[C@@H](CC(=O)O)C(=O)N1CCC[C@H]1C(=O)N[C@@H](CC(N)=O)C(=O)N[C@@H](CC(=O)O)C(=O)N[C@@H](CCC(N)=O)C(=O)N[C@@H](Cc1ccc(O)cc1)C(=O)N[C@@H](CCC(=O)O)C(=O)N1CCC[C@H]1C(=O)N[C@@H](Cc1ccccc1)C(=O)O)C(C)C)C(C)C [copper-64 labelled]  tissue uptake (GZMB-/- mice, CT26 tumour-bearing, liver; 2 h, vehicle-treated): 8.12 ± 1.2 %ID/g
